Experimental data collected from several papers.
“And” joins repeats or separate records; there may be more than shown. ± gives the spread as reported.
STK10: Serine/threonine-protein kinase 10 (STK10, Homo sapiens, UniProt O94804)
Chain of UniProt O94804 (whole entry, looked up): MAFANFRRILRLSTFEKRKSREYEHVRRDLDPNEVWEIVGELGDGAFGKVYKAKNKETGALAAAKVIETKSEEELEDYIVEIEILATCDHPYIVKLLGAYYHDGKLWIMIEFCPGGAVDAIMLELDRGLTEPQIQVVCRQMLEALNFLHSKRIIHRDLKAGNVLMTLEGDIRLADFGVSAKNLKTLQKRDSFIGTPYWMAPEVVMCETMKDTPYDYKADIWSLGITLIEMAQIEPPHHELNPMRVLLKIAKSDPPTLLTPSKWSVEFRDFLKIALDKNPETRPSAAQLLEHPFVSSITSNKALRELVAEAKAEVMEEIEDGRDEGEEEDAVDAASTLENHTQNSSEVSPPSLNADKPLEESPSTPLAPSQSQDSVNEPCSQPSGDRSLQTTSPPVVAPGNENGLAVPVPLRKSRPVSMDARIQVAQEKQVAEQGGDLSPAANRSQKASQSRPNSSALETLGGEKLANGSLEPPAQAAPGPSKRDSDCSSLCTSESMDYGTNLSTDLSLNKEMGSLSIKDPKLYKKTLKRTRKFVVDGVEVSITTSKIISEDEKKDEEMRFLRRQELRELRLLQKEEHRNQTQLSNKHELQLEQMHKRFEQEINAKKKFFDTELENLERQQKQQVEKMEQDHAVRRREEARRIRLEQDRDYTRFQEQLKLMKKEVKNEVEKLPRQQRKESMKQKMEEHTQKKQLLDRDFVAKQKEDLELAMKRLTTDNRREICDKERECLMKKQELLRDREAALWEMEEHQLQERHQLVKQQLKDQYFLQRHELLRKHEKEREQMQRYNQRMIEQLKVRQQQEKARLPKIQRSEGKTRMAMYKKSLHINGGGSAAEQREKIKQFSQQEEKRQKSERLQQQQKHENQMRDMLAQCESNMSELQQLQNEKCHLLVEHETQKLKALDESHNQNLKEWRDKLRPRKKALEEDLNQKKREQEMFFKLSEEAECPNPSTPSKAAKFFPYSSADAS
Chain of UniProt O75747 (whole entry, looked up): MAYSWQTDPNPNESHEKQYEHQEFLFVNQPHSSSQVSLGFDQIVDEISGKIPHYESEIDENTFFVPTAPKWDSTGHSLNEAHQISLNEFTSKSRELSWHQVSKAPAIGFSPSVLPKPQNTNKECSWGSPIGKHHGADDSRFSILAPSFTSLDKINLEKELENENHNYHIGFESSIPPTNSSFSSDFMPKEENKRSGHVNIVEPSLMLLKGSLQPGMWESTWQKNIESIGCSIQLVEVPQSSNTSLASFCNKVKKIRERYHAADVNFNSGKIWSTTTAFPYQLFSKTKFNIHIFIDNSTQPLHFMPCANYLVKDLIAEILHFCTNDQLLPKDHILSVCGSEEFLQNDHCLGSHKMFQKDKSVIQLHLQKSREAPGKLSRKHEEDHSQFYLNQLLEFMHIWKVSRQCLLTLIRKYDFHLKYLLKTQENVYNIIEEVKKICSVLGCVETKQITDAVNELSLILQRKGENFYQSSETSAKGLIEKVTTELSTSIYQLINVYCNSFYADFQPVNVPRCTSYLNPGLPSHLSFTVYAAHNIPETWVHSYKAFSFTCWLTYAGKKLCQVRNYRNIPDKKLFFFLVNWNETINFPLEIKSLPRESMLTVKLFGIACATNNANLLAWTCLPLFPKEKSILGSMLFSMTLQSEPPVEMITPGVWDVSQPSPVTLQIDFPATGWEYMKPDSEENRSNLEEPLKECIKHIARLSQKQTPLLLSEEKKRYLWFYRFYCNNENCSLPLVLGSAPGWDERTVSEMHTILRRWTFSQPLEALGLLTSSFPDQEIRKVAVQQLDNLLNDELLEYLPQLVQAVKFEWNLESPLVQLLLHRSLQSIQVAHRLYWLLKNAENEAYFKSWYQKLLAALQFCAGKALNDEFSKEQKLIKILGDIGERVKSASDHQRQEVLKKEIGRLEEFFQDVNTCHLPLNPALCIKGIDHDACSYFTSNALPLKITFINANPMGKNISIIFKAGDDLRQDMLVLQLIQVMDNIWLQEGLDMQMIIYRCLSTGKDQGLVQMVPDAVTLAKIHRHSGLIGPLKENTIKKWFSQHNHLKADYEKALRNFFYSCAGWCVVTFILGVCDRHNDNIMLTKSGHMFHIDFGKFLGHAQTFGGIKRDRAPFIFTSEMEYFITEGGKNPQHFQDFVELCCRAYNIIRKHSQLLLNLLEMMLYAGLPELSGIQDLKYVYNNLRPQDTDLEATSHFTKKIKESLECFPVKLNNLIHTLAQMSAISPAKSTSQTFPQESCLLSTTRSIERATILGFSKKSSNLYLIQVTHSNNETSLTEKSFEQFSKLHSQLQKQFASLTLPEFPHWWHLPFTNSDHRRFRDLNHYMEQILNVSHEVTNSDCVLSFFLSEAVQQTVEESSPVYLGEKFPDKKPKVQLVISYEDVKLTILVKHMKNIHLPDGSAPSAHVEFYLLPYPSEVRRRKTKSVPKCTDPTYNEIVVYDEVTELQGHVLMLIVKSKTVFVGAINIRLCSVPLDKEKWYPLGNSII

| Structure (SMILES) | target or system | test | system | conditions | how to read | measurement | value |
| --- | --- | --- | --- | --- | --- | --- | --- |
| CC(C)CC(C(=O)N1CC2(CC1C#N)C(=O)Nc1ccccc12)N(C)C(=O)c1cc2c(F)cc(F)c(F)c2[nH]1 (stereo not drawn) | human coronavirus 229E | viral replication |  | 0.000137 µM |  | inhibition | 19.9% |
| O=C1NC(=O)c2c1c1cc(F)c[n+]3c1c1c2c2cc(O)ccc2[n]1[Ru-4]312([N]=C=S)[S+]3CC[S+]1CC[S+]2CC3 (stereo not drawn) | STK10 | enzyme activity |  | 100 nM, human enzyme, together with: 10 µM ATP | baseline: untreated | remaining activity | 86% |
| CC(C)(C)C(=O)OCOP(=O)(OCOC(=O)C(C)(C)C)C1CCCN(O)C1=O (stereo not drawn) | SW-620 |  |  |  |  | log GI50 | -6.31 log M |
| COC1CN([C@H]2CC[C@H]([C@@H](C)n3c(C)c(C(=O)NCc4c(SC)cc(C)[nH]c4=O)c4ccccc43)CC2)C1 | KARPAS-422 | cell growth or viability |  | 8 days |  | GI50 | 0.033 µM |
| O=C1NC2(CC2)COc2ncc(F)cc2[C@H]2COCCN2c2ccn3ncc1c3n2 |  |  | Sprague-Dawley rat, male, thymus | oral, 5 mg/kg/day, 4 weeks, end of treatment |  | organ-to-brain weight ratio | 31.1 ± 6.08% |
| CC[C@H](C)[C@H](NC(=O)[C@@H](NC(=O)c1cccc(Cl)c1Cl)C(C)(C)C)C(=O)N[C@H](C(=O)N[C@H](C(=O)N[C@H](C(=O)N[C@@H](CCC(N)=O)C(=O)N[C@@H](Cc1c[nH]cn1)C(=O)N[C@H](CC(C)C)C(=O)N[C@@H](CO)C(=O)NCCC(=O)N[C@@H](CCCCNC(=O)CC[C@@H]1NC(=O)[C@@H](CCCNC(=N)N)NC(=O)[C@H](CCCNC(=N)N)NC(=O)[C@@H](CCCNC(=N)N)NC(=O)[C@H](CCCNC(=N)N)NC(=O)[C@H](Cc2ccc3ccccc3c2)NC(=O)[C@@H](Cc2ccccc2)NC1=O)C(N)=O)[C@@H](C)O)[C@@H](C)CC)C(C)(C)C | mouse macrophages | immunofluorescence |  | 1 µM, together with: LPS 100 ng/mL |  | NFATc3 nuclear translocation | inhibited |
| CS(C)(=O)=Nc1ccc(-c2ccc(-c3nc4cc(O[C@@H]5CO[C@H]6[C@@H]5OC[C@H]6O)[nH]c4cc3F)cc2)cc1 | PIK3C2G (Homo sapiens, UniProt O75747) | enzyme activity, inhibitor |  | 10 µM |  | inhibition | 6% |
| Cc1ccc(OCCN(C)C)cc1C(=O)N[C@H](C)c1cc(-c2scnc2C)nc2ccccc12 | Vero E6 |  |  | 7.812 µM |  | viability | 105% and 96.2% |
| COc1ccccc1-c1n[nH]c2nc(NC3CCN(C(=O)Cc4ccc(F)cc4F)CC3)ncc12 |  | bead binding, competition bead pull-down, item: LINJ.31.0710 | Leishmania donovani axenic amastigote extract | 10 µM | baseline: vehicle | relative abundance | 1.29 |
| Cc1cc(Oc2nc(N3CC[C@@H](c4ccncc4)C3)ncc2F)[nH]n1 | Mycobacterium tuberculosis | OD | H37Rv PurF CRISPRi knockdown | 0.001953 µM, together with: anhydrotetracycline low |  | normalised growth | 83% and 86% and 84% |
| CCN(CC)C(=O)[C@@H]1C=C2c3cccc4c3c(cn4C(=O)c3cccs3)C[C@H]2N(C)C1 |  | magnetometer detection | mouse C57BL/6J male | intraperitoneal, dose not given, lower doses, 5 min blocks |  | time to peak head-twitch response | 10 to 15 min |
| COc1ccccc1-c1ccncc1C(=O)Nc1nnc(OCc2ccc(Cl)cc2)s1 | DLD-1 parental |  |  | 1 µM | baseline: untreated | colony survival | 97.9% and 94.6% and 97% |
| Cc1ccn2c(C(=O)NCc3ccccc3)c(C)nc2c1 | Mycolicibacterium smegmatis |  |  | 72 h |  | MIC | > 100 µM |
| Cc1ccc2c(n1)c(-c1cccc(S(C)(=O)=O)c1)c(C)n2C/C(F)=C/CN | kainate receptor (rat) | radioligand binding |  | 10 µM, rat |  | inhibition | 6% |
| Cc1nc2ccc(OC(F)(F)F)cn2c1C(=O)NCc1ccc2oc(-c3ccc(Cl)cc3)nc2c1 | Mycolicibacterium smegmatis |  |  |  |  | MIC90 | > 100 µM |
| COc1ccccc1-c1n[nH]c2nc(N[C@H]3CC[C@H](NS(=O)(=O)CC(C)C)CC3)ncc12 |  | bead binding, competition bead pull-down, item: LINJ.33.0600 | Leishmania donovani extract | 10 µM | baseline: vehicle | relative abundance | 1.39 |
| CC(C)[C@H]1NC(=O)C[C@H]2/C=C/CCSSC[C@@H](NC1=O)C(=O)N[C@H](Cc1cccc3ccccc13)C(=O)NCC(=O)O2 | STK10 | enzyme activity, inhibitor |  | 10 µM |  | inhibition | 16.3% |
| CC[C@H](C)[C@H](NC(=O)[C@H](CC(C)C)NC(=O)[C@H](CC(C)C)NC(=O)[C@H](CC(=O)O)NC(=O)[C@@H](NC(=O)[C@H](CCC(=O)O)NC(=O)[C@H](CCCCN)NC(=O)[C@H](Cc1ccc(O)cc1)NC(=O)[C@H](CCCCN)NC(=O)[C@H](Cc1c[nH]cn1)NC(=O)CNC(=O)CN)[C@@H](C)O)C(=O)N[C@@H](CC(C)C)C(=O)N[C@@H](Cc1ccccc1)C(=O)N[C@@H](CCCCN)C(=O)N[C@@H](CC(=O)O)C(=O)N[C@@H](CC(=O)O)C(=O)N[C@@H](Cc1ccc(O)cc1)C(=O)N[C@@H](Cc1ccccc1)C(=O)N[C@@H](C)C(=O)N[C@@H](CCCCN)C(=O)N[C@@H](CCCCN)C(=O)N[C@@H](CC(N)=O)C(=O)N[C@@H](CCC(=O)O)C(=O)N[C@@H](CCC(=O)O)C(=O)N[C@@H](CCCNC(=N)N)C(=O)N[C@@H](CCCCN)C(N)=O | HCV IRES RNA | MALDI-TOF mass spectrometry, item: 3'-phosphate products | hepatitis C virus |  |  | initial cleavage rate | 6.4 ± 1.3 %/min |
| Cc1ccc(OCCN(C)C)cc1C(=O)N[C@H](C)c1cc(-c2ccnn2C)nc2ccccc12 | Vero E6 |  |  | 7.812 µM |  | viability | 99.1% and 95.1% |
| CN1C(=O)C(C2C3=C(CC(C)(C)CC3=O)Oc3ccc([N+](=O)[O-])cc32)C(=O)N(C)C1=O (stereo not drawn) | 3T3-L1 during adipogenesis | Oil Red O |  | IC20 | baseline: untreated | lipid content reduction | ~80% |
| Cc1cc(C(=O)Nc2nc3cccc(C)c3n2[C@H]2CCCCN(C(=O)/C=C/CN(C)C)C2)ccn1 | Trypanosoma brucei brucei |  | 2T1 CLK1 overexpressing | 0.0391 µM, DMSO pretreated | baseline: maximum | survival | 64.8% and 55% and 65.9% and 61.9% |
